Published values gathered from unrelated publications.
Lines come from different studies, so protocols differ. Several values in a cell are separate wells, animals, samples, runs or records. Numbers after ± are the reported error.
BCHE: Cholinesterase (BCHE, Equus caballus, UniProt P81908)
Sequence of UniProt P81908 (whole entry, looked up): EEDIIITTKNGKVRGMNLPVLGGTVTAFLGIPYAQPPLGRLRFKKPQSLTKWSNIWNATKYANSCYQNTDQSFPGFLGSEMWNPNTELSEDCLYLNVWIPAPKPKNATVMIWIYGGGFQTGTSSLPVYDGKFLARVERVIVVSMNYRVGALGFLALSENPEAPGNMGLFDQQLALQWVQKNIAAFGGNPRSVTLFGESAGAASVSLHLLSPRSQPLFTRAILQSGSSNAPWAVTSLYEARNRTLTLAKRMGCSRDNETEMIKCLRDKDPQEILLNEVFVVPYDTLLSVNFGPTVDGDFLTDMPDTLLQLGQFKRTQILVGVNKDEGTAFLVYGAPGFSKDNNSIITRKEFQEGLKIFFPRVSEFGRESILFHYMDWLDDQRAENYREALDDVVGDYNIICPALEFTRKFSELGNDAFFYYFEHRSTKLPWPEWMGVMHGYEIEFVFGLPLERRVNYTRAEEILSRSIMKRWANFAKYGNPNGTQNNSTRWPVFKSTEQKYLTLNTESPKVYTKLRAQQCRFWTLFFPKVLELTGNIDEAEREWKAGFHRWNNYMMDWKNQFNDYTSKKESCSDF
Sequence of UniProt Q9Y2J8 (whole entry, looked up): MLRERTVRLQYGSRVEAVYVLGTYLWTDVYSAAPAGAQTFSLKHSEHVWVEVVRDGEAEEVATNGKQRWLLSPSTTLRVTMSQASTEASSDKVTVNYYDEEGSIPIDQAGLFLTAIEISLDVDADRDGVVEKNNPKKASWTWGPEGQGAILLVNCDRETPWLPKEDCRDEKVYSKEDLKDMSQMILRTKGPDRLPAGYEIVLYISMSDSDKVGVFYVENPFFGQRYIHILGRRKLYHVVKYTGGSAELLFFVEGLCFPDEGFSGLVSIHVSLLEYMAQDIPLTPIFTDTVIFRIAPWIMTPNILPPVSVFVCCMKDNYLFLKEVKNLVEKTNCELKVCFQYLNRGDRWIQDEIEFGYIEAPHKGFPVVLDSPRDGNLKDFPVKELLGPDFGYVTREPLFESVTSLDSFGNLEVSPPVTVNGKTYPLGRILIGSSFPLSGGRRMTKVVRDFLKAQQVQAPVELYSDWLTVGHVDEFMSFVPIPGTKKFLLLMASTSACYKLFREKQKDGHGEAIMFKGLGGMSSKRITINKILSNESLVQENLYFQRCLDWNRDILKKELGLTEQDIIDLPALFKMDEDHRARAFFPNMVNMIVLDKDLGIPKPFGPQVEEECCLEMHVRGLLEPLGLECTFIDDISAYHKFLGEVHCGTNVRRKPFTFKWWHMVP
Sequence of UniProt P45983 (whole entry, looked up): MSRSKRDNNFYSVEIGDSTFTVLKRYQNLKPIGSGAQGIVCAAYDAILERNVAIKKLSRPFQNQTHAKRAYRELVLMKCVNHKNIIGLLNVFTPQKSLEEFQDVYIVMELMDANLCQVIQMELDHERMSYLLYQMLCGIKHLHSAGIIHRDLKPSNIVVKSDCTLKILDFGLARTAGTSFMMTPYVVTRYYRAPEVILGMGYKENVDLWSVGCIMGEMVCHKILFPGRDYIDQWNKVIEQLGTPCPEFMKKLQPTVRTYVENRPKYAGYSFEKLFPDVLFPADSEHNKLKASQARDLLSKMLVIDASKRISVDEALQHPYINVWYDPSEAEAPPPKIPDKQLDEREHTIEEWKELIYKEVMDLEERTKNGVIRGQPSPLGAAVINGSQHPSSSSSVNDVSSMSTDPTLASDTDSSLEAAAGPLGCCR
Sequence of UniProt P25021 (whole entry, looked up): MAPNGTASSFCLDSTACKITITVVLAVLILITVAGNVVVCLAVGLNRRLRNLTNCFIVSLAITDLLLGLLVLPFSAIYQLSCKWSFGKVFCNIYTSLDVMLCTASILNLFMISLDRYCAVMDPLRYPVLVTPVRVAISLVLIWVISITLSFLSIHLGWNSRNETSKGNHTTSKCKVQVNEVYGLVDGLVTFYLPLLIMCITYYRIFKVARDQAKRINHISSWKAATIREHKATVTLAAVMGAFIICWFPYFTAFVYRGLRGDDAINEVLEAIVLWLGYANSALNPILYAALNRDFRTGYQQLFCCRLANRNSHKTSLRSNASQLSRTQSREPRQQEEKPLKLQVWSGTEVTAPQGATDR
Sequence of UniProt Q16620 (whole entry, looked up): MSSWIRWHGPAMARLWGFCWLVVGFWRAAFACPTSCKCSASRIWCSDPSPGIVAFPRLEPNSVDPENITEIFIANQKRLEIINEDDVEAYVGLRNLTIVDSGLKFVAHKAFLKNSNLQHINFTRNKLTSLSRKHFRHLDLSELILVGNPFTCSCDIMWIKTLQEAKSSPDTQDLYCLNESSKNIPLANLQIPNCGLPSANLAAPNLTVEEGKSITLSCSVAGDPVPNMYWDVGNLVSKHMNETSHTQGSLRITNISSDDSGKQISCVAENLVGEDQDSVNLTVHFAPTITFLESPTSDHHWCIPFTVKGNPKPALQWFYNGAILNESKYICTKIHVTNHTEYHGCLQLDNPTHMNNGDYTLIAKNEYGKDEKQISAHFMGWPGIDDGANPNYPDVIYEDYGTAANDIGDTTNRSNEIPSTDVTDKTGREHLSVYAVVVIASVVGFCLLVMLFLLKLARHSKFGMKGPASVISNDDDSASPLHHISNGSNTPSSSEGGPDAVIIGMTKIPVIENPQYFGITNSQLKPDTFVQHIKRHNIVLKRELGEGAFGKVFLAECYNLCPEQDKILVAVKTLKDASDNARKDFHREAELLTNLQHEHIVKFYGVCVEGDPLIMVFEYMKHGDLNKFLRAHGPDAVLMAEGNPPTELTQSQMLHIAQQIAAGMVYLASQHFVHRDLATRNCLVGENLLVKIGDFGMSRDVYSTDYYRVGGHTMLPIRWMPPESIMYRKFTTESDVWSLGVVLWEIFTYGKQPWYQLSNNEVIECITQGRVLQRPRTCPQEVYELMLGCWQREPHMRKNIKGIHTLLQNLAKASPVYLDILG
Sequence of UniProt P21917 (whole entry, looked up): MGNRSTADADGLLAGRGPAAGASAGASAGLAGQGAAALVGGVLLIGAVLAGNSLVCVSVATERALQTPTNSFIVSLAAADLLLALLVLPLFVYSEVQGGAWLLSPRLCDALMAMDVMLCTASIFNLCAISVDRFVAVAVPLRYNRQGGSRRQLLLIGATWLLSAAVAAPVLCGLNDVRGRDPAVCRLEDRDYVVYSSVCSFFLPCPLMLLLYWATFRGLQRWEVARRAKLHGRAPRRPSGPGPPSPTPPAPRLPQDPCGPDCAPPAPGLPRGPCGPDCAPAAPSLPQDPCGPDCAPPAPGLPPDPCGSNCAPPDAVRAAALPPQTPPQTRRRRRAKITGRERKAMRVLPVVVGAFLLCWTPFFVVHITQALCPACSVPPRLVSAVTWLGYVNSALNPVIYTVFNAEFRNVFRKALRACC
Sequence of UniProt P06213 (whole entry, looked up): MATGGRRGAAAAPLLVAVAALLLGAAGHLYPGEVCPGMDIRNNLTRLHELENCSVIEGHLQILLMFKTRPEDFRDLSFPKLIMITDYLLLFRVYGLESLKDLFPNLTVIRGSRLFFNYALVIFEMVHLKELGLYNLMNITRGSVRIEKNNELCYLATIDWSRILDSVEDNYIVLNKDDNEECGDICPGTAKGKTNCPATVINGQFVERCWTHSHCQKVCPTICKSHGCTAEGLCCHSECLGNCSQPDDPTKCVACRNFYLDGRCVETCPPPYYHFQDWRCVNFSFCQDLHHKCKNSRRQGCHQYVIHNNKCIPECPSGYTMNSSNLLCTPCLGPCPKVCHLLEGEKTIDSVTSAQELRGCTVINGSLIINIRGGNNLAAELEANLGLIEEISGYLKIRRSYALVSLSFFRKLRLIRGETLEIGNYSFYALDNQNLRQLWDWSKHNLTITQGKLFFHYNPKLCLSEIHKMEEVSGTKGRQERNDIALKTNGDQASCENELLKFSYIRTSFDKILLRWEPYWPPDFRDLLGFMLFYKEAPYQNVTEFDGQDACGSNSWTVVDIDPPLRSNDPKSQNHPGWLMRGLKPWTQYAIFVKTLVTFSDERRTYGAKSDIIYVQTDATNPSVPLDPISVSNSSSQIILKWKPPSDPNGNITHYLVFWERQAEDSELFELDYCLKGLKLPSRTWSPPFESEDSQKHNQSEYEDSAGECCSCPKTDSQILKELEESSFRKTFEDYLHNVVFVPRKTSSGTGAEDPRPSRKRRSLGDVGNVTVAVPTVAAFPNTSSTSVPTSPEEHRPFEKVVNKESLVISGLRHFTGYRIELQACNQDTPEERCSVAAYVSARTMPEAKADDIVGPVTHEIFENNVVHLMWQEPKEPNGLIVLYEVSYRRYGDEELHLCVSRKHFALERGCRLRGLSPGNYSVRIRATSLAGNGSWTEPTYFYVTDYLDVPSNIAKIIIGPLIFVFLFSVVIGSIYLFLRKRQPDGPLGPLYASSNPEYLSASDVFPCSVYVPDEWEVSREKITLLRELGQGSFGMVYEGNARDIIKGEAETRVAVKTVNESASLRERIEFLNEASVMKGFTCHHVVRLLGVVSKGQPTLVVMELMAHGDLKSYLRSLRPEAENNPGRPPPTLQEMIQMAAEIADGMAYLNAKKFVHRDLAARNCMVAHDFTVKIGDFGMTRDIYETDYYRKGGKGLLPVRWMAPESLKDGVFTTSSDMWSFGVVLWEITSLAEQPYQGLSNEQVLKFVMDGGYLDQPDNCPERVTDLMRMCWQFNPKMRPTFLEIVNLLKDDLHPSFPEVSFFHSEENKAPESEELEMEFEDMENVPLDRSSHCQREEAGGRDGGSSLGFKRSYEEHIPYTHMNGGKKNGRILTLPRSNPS
Sequence of UniProt P49146 (whole entry, looked up): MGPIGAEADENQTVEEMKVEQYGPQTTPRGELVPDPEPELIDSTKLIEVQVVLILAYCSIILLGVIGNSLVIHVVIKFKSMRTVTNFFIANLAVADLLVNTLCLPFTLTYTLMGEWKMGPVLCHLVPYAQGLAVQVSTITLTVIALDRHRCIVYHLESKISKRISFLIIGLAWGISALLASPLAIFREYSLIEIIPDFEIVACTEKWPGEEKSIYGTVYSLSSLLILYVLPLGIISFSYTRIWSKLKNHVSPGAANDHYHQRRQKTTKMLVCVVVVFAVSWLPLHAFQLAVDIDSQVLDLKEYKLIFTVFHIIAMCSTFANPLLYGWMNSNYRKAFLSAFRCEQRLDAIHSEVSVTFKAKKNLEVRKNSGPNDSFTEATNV

SMILES | target or system | test | test system | conditions | how to read | measurement | value
COc1ccc(F)cc1S(=O)(=O)Nc1cnc2c(c1)C(=O)NCCO2 | aldosterone receptor | radioligand binding |  | 10 µM |  | inhibition | 1%
CN(C)[C@H]1C[C@@]23CC[C@@]4(O2)C(=CC[C@]2(C)[C@@H](c5ccc6ccncc6c5)CC[C@H]24)C=C3[C@@H](O)[C@@H]1O | Glycogen synthase kinase-3 alpha (GSK3A, Homo sapiens, UniProt P49840) | ATP probe labelling, inhibitor, KiNativ profiling |  | 1 µM |  | inhibition | 1.7%
CC(=O)NCCCC[C@@H]1NC(=O)[C@H](Cc2c[nH]c3c(C)cccc23)NC(=O)[C@H]([C@@H](C)O)NC(=O)[C@H](CC(N)=O)NC(=O)[C@@H](NC(C)=O)C(C)(C)SSC(C)(C)[C@@H](C(=O)N[C@@H](Cc2ccc(OCCN)cc2)C(=O)N[C@@H](Cc2ccc3ccccc3c2)C(=O)NC2(C(=O)N[C@@H](CCC(=O)O)C(=O)N[C@@H](CC(N)=O)C(=O)N[C@@H](Cc3cccnc3)C(=O)N(C)CC(N)=O)CCOCC2)NC1=O | Solute carrier organic anion transporter family member 1B1 (SLCO1B1, Homo sapiens, UniProt Q9Y6L6) | substrate | HEK293 expressing SLCO1B1 | 5 µM, 30 min |  | uptake rate | 0.095 ± 0.0041 pmol/mg/min
O=S(=O)(F)CCc1cn(-c2cnc3ccccc3c2)nn1 | BCHE | Ellman | horse | 20 µM |  | inhibition | 46.7 ± 2.2%
N#Cc1ccc(N2N=C3c4ccc(C(=O)O)cc4CCC3C2C2CCCC2)cc1Cl (stereo not shown) | Histone-lysine N-methyltransferase SETD2 (SETD2, Homo sapiens, UniProt Q9BYW2) | enzyme activity, inhibitor |  | 10 µM |  | inhibition | 16%
Cc1ccc(-n2cc(CCS(=O)(=O)F)nn2)cc1 | BCHE | enzyme activity, inhibitor, Ellman's method | horse serum BuChE | 20 µM |  | inhibition | 32.5 ± 2.1%
CCc1nnc(-c2c(OC)cc(-c3cnc4cc(-c5cnn(C)c5)ccn34)cc2OC)o1 | Histamine H2 receptor (HRH2, Homo sapiens, UniProt P25021) | antagonist radioligand, radioligand binding |  | 10 µM, SafetyScreen44 H2 |  | inhibition | -7%
COc1ccccc1-c1n[nH]c2nc(N[C@H]3CC[C@H](NS(=O)(=O)CC(C)C)CC3)ncc12 |  | bead binding, competition bead pull-down, item: LMJF.36.3530 | Leishmania donovani extract | 10 µM | reference: vehicle | relative abundance | 1.06
C[C@H](NCc1ccc(-c2ccc(C(F)(F)F)cc2)cc1)C(N)=O | Mitogen-activated protein kinase 8 (MAPK8, Homo sapiens, UniProt P45983) | cell-free assay, competition with immobilised ligand |  | 1 µM |  | inhibition | 14%
CN(/N=C/c1ccccc1C(=O)O)c1nc(-c2ccccc2Cl)cs1 | Tyrosine-protein kinase Mer (MERTK, Homo sapiens, UniProt Q12866) | enzyme activity, inhibitor |  | 1 µM |  | inhibition | -15.9%
CC(C)[C@@H](Nc1nc(Cl)nc2c1ncn2[C@H]1[C@H](O)[C@H](O)[C@]2(CF)C[C@H]12)C1CC1 | 5-hydroxytryptamine receptor 2C (HTR2C, Homo sapiens, UniProt P28335) | ligand displacement, radioligand |  | 10 µM |  | inhibition | 45%
CS(C)(=O)=Nc1ccc(-c2ccc(-c3nc4cc(O[C@@H]5CO[C@H]6[C@@H]5OC[C@H]6O)[nH]c4cc3F)cc2)cc1 | BDNF/NT-3 growth factors receptor (NTRK2, Homo sapiens, UniProt Q16620) | enzyme activity, inhibitor |  | 10 µM |  | inhibition | -19%
C1CSCN1 | BCHE | enzyme activity, inhibitor, Ellman |  | 20 µM |  | inhibition | 38.1%
CC(=O)NC[C@@H]1[C@@H](O)C[C@H]2[C@H](O)C[C@@H](CO)N12 | Spodoptera litura β-N-acetylglucosaminidase |  | crude enzyme | 0.856 µM, run 1, together with: p-nitrophenyl GlcNAc |  | inhibition | 62.9%
CC(C)(C)C(=O)OCOP(=O)(OCOC(=O)C(C)(C)C)C1CCCN(O)C1=O (stereo not shown) | PC-3 |  |  |  |  | GI50 | 2.02 µM
N[C@H](C(=O)N1CCCC1)C1CCN(c2nccc3c(-c4ncc(Cl)cc4Cl)cccc23)CC1 | Protein-arginine deiminase type-2 (PADI2, Homo sapiens, UniProt Q9Y2J8) | enzyme activity, GDH-coupled |  | 0.2458 µM, together with: 1.5 mM Ca2+ (high) |  | inhibition | -0.0786% and 8.72%
O=C1c2ccccc2CCCN1CCCCN1CCN(c2cccc(Cl)c2Cl)CC1 | D(4) dopamine receptor (DRD4, Homo sapiens, UniProt P21917) | radioligand binding |  | concentration not given, together with: [3H]N-methylspiperone |  | inhibition | 101%

SMILES | target or system | test | test system | conditions | how to read | measurement | value
CN[C@@H]1[C@H](O)[C@H](NC)[C@H]2O[C@]3(O)[C@H](O[C@@H]2[C@H]1O)O[C@H](C)C[C@H]3NC(=O)Cc1cc(Cl)ccn1 | Substance-P receptor (TACR1, Homo sapiens, UniProt P25103) | ligand displacement, radioligand |  | 10 µM |  | inhibition | 7%
CC(C)CC(O)(CC(C)C)c1cn(C(=O)N2CCCC2)nn1 | Platelet-activating factor acetylhydrolase IB subunit alpha2 (Mus musculus, UniProt Q61206) | probe labelling, inhibitor, item: Pafah1b2 | mouse, brain | i.p., 0.8 mg/kg, 4 h, protein level | reference: treated over vehicle mice, lower = stronger inhibition | activity ratio-of-ratios | 1.34
O=C(c1cc(Cc2n[nH]c(=O)c3ccccc23)ccc1F)N1CC(CNC2CC2)C1 | Poly [ADP-ribose] polymerase tankyrase-2 (TNKS2, Homo sapiens, UniProt Q9H2K2) | enzyme activity, inhibitor |  | 10 µM |  | inhibition | 62%
COc1ccccc1-c1n[nH]c2nc(NC3CCN(C(=O)Cc4ccc(F)cc4F)CC3)ncc12 |  | bead binding, competition bead pull-down, item: LINJ.30.1440 | Leishmania donovani axenic amastigote extract | 10 µM | reference: vehicle | relative abundance | 0.93
O=C(CN1CN(c2ccccc2)C2(CCN(C(=O)c3cnc4[nH]ncc4c3)CC2)C1=O)NCC(F)(F)F | Serine/threonine-protein kinase 24 (STK24, Homo sapiens, UniProt Q9Y6E0) | inhibitor |  | concentration not given |  | inhibition | < 50%
CC(C)CC1NCCc2cc(O)c(O)cc21 (stereo not shown) | Alpha-glucosidase MAL12 (MAL12, Saccharomyces cerevisiae S288c, UniProt P53341) | enzyme activity, inhibitor |  | 100 µM, DMSO solvent, together with: pNPG substrate |  | inhibition | 42.7 ± 2.2%
CC(C)[C@H]1NC(=O)C[C@H]2/C=C/CCSSC[C@@H](NC1=O)C(=O)N[C@H](Cc1cccc3ccccc13)C(=O)NCC(=O)O2 | Cytoplasmic tyrosine-protein kinase BMX (BMX, Homo sapiens, UniProt P51813) | enzyme activity, inhibitor |  | 10 µM |  | inhibition | 1%
CC[C@H](C)[C@H](NC(=O)[C@H](CO)NC(=O)[C@H](Cc1ccc(O)cc1)NC(=O)[C@H](Cc1ccc(O)cc1)NC(=O)[C@H](CC(N)=O)NC(=O)CNC(=O)[C@H](CO)NC(=O)[C@H](Cc1ccc(O)cc1)NC(=O)[C@H](CO)NC(=O)[C@H](CO)NC(=O)[C@H](CC(N)=O)NC(=O)COCCOCCNC(=O)CN1CCN(CC(=O)O)CCN(CC(=O)O)CCN(CC(=O)O)CC1)C(=O)N[C@@H](CC(C)C)C(N)=O [copper-64 labelled] |  | dynamic PET | tamoxifen-induced PDAC mouse model, pancreas | 0 min, CLDN4-expressing tumours |  | maximum pancreas uptake | 0 %IA/cc
O=C1NC2(CC2)COc2ncc(F)cc2[C@H]2COCCN2c2ccn3ncc1c3n2 |  |  | Sprague-Dawley rat, female, plasma | oral, 2.5 mg/kg/day, end of treatment, 4-week repeated-dose toxicity |  | prothrombin time | 8.2 ± 0.2 s
O=C1NC(=O)c2c1c1cc(F)c[n+]3c1c1c2c2cc(O)ccc2[n]1[Ru-4]312([N]=C=S)[S+]3CC[S+]1CC[S+]2CC3 (stereo not shown) | Insulin receptor (INSR, Homo sapiens, UniProt P06213) | enzyme activity |  | 100 nM, human enzyme, together with: 10 µM ATP | reference: untreated | remaining activity | 96%
O=C(O)c1ccccc1/C=N/Nc1nc(-c2ccccc2Cl)cs1 | Serine/threonine-protein kinase Nek9 (NEK9, Homo sapiens, UniProt Q8TD19) | enzyme activity, inhibitor |  | 1 µM |  | inhibition | -7.59%
CCOC(=O)[C@](CC)(CCCSCCOCCOCCNC(=O)c1ccc(-c2c3ccc(=N)c(S(=O)(=O)O)c-3oc3c(S(=O)(=O)O)c(N)ccc23)c(C(=O)O)c1)NC(=O)c1ccc(C2CC2)c(Cc2ccc(F)cc2)n1 | Angiotensin-converting enzyme (ACE, Homo sapiens, UniProt P12821) | enzyme activity, inhibitor |  | 10 µM |  | inhibition | -22%
CC[C@H](C)[C@@H]([C@@H](CC(=O)N1CCC[C@H]1[C@H](OC)[C@@H](C)C(=O)N[C@H](C)[C@@H](O)c1ccccc1)OC)N(C)C(=O)[C@@H](NC(=O)[C@H](C(C)C)N(C)C(=O)OCc1ccc(NC(=O)[C@H](CCCNC(N)=O)NC(=O)[C@@H](NC(=O)CCCCCN2C(=O)CC(SC[C@H](NC(=O)[C@H](CC(=O)O)NC(=O)[C@H](Cc3ccc(O)cc3)NC(=O)[C@H](Cc3c[nH]c4ccccc34)NC(=O)[C@@H](N)CCCNC(=N)N)C(=O)O)C2=O)C(C)C)cc1)C(C)C (stereo partly shown) |  |  | C57BL/6 mouse, healthy, heart | intraperitoneal, 2.5 mg/kg, 1 h |  | concentration | not detected
Cc1cc(C)cc(-n2cc(CCS(=O)(=O)F)nn2)c1 | BCHE | enzyme activity, inhibitor, Ellman's method | horse serum BuChE | 20 µM |  | inhibition | 32.4 ± 1.4%
N=C(N)NCCC[C@@H]1NC(=O)[C@H](CCCCNC(=O)CCC(NC(=S)Nc2ccc(CC3CN(CC(=O)O)CCN(CC(=O)O)CCN(CC(=O)O)CCN3CC(=O)O)cc2)C(=O)NCCCC[C@@H]2NC(=O)[C@@H](Cc3ccc(O)cc3)NC(=O)[C@H](CC(=O)O)NC(=O)CNC(=O)[C@H](CCCNC(=N)N)NC2=O)NC(=O)[C@@H](Cc2ccc(O)cc2)NC(=O)[C@H](CC(=O)O)NC(=O)CNC1=O (stereo partly shown) [scandium-44 labelled] |  | ex vivo γ-counting | female athymic nude mice, U-87 MG xenograft, bone | intravenous, 4 h, together with: cRGD 50 mg/kg blocking |  | tissue uptake | 0.025 ± 0.004 %ID/g
CN[C@@H]1[C@H](O)[C@H](NC)[C@H]2O[C@]3(O)[C@H](O[C@@H]2[C@H]1O)O[C@H](C)C[C@H]3NC(=O)Cc1ccc(Cl)cn1 | Neuropeptide Y receptor type 2 (NPY2R, Homo sapiens, UniProt P49146) | ligand displacement, radioligand |  | 10 µM |  | inhibition | -2%
CC[C@H](C)[C@H](NC(=O)[C@H](CCCCN)NC(=O)CNC(=O)[C@H](CC(C)C)NC(=O)[C@H](Cc1ccccc1)NC(=O)[C@H](CCCCN)NC(=O)[C@H](CO)NC(=O)[C@H](Cc1ccccc1)NC(=O)[C@H](Cc1c[nH]c2ccccc12)NC(=O)[C@H](CCC(N)=O)NC(=O)[C@@H](NC(=O)[C@H](Cc1ccccc1)NC(=O)CCCCCNC(=O)CN1CCN(CC(=O)O)CCN(CC(=O)O)CCN(CC(=O)O)CC1)C(C)C)C(=O)N[C@@H](CCC(=O)O)C(=O)N1CCC[C@H]1C(=O)N[C@@H](CC(=O)O)C(=O)N[C@H](C(=O)N[C@@H](CO)C(=O)N[C@@H](CCC(N)=O)C(=O)N[C@H](C(=O)N[C@@H](CCC(N)=O)C(=O)N[C@@H](CC(=O)O)C(=O)N1CCC[C@H]1C(=O)N[C@@H](CC(N)=O)C(=O)N[C@@H](CC(=O)O)C(=O)N[C@@H](CCC(N)=O)C(=O)N[C@@H](Cc1ccc(O)cc1)C(=O)N[C@@H](CCC(=O)O)C(=O)N1CCC[C@H]1C(=O)N[C@@H](Cc1ccccc1)C(=O)O)C(C)C)C(C)C [copper-64 labelled] |  |  | C57BL/6 male mouse, tumour-naive, large intestine | 4 h |  | tissue uptake | 13.8 ± 1.3 %ID/g

Some of these lines once more:
SMILES | target or system | test | test system | conditions | how to read | measurement | value
CN[C@@H]1[C@H](O)[C@H](NC)[C@H]2O[C@]3(O)[C@H](O[C@@H]2[C@H]1O)O[C@H](C)C[C@H]3NC(=O)Cc1cc(Cl)ccn1 | Substance-P receptor (TACR1, Homo sapiens, UniProt P25103) | ligand displacement, radioligand |  | 10 µM |  | inhibition | 7%
CC(C)CC(O)(CC(C)C)c1cn(C(=O)N2CCCC2)nn1 | Platelet-activating factor acetylhydrolase IB subunit alpha2 (Mus musculus, UniProt Q61206) | probe labelling, inhibitor, item: Pafah1b2 | mouse, brain | i.p., 0.8 mg/kg, 4 h, protein level | reference: treated over vehicle mice, lower = stronger inhibition | activity ratio-of-ratios | 1.34
O=C(c1cc(Cc2n[nH]c(=O)c3ccccc23)ccc1F)N1CC(CNC2CC2)C1 | Poly [ADP-ribose] polymerase tankyrase-2 (TNKS2, Homo sapiens, UniProt Q9H2K2) | enzyme activity, inhibitor |  | 10 µM |  | inhibition | 62%
COc1ccccc1-c1n[nH]c2nc(NC3CCN(C(=O)Cc4ccc(F)cc4F)CC3)ncc12 |  | bead binding, competition bead pull-down, item: LINJ.30.1440 | Leishmania donovani axenic amastigote extract | 10 µM | reference: vehicle | relative abundance | 0.93
